Results pooled from the literature.
Compare with care: the assays were run in different laboratories. ≈ marks a conversion by molar mass, not a printed value.

SMILES | organism | technique | strain | time | added | MIC [µg/mL]
CC1(C)S[C@@H]2[C@H](NC(=O)[C@H](N)c3ccccc3)C(=O)N2[C@H]1C(=O)O | Proteus mirabilis | broth microdilution |  | 18 h |  | 128 (≈ 366 µM)
O=C(N[C@H](CO)[C@H](O)c1ccc([N+](=O)[O-])cc1)C(Cl)Cl | Staphylococcus cohnii | broth microdilution | L5 | 18 h |  | > 128
C[C@H]1COc2c(N3CCN(C)CC3)c(F)cc3c(=O)c(C(=O)O)cn1c23 | Proteus mirabilis | broth microdilution |  | 18 h |  | 0.5 (≈ 1.38 µM)
CN[C@H](CC(C)C)C(=O)N[C@H]1C(=O)N[C@@H](CC(N)=O)C(=O)N[C@H]2C(=O)N[C@H]3C(=O)N[C@H](C(=O)N[C@H](C(=O)O)c4cc(O)cc(O)c4-c4cc3ccc4O)[C@H](O)c3ccc(c(Cl)c3)Oc3cc2cc(c3O[C@@H]2O[C@H](CO)[C@@H](O)[C@H](O)[C@H]2O[C@H]2C[C@](C)(N)[C@H](O)[C@H](C)O2)Oc2ccc(cc2Cl)[C@H]1O | Staphylococcus aureus |  | MRSA-11 |  |  | 0.5 (≈ 0.345 µM)
CC(C)CC1NC(=O)C(C(=O)NC(C(=O)NC2C(=O)N3C2SC(C)(C)C3C(=O)O)c2ccccc2)=C1O (stereo not drawn) | Escherichia coli | broth microdilution | ATCC 25922 wild type |  | clavulanic acid 6 µg/mL | 12.5
CNC(C)C1CCC(N)C(OC2C(N)CC(N)C(OC3OCC(C)(O)C(NC)C3O)C2O)O1 (stereo not drawn) | Pseudomonas aeruginosa |  | clinical isolate RKI-No_615/15 |  |  | > 8
NC[C@H]1O[C@H](O[C@H]2[C@H](O)[C@@H](O[C@H]3O[C@H](CO)[C@@H](O)[C@H](N)[C@H]3O)[C@H](N)C[C@@H]2N)[C@H](O)[C@@H](O)[C@@H]1O | Proteus mirabilis | broth microdilution |  | 18 h |  | 2 (≈ 4.13 µM)
CC1(C)S[C@@H]2[C@H](NC(=O)[C@H](N)c3ccccc3)C(=O)N2[C@H]1C(=O)O | Salmonella enterica serovar Infantis | broth microdilution | clinical isolate RKI-No 277/14 |  |  | > 16
CN(C)[C@@H]1C(O)=C(C(N)=O)C(=O)[C@@]2(O)C(O)=C3C(=O)c4c(O)cccc4[C@@](C)(O)[C@H]3C[C@@H]12 | Staphylococcus cohnii | broth microdilution | L5 | 18 h |  | > 128
CN1CC(O)=C(C(=O)NC(C(=O)NC2C(=O)N3C2SC(C)(C)C3C(=O)O)c2ccccc2)C1=O (stereo not drawn) | Escherichia coli | broth microdilution | ATCC 25922 wild type |  | clavulanic acid 6 µg/mL | 25
COc1cc(Cc2cnc(N)nc2N)cc(OC)c1OC | Staphylococcus cohnii |  | L5 | 18 h |  | 64 (≈ 220 µM)
CCCCCCCCCC(=O)N[C@@H](Cc1c[nH]c2ccccc12)C(=O)N[C@H](CC(N)=O)C(=O)N[C@@H](CC(=O)O)C(=O)N[C@@H]1C(=O)NCC(=O)N[C@@H](CCCN)C(=O)N[C@@H](CC(=O)O)C(=O)N[C@H](C)C(=O)N[C@@H](CC(=O)O)C(=O)NCC(=O)N[C@H](CO)C(=O)N[C@@H]([C@H](C)CC(=O)O)C(=O)N[C@@H](CC(=O)c2ccccc2N)C(=O)O[C@@H]1C | Staphylococcus aureus |  | SH1000 |  | lysophosphatidylethanolamine, molar ratio 0.5 | 1
